Measured values collected from several papers.
Compare with care: the assays were run in different laboratories.

CCCCCCCCCCCCCCCCCCCC(=O)N[C@@H](CCCCN)C(=O)N[C@@H](CCCCN)C(=O)N[C@@H](CCCCN)C(=O)N[C@@H](CCCCN)C(=O)N[C@@H](CCCCN)C(N)=O
retention time (RP-HPLC C18): 17.3 min

CC(C)C[C@@H]1NC(=O)[C@H](CCCCN)NC(=O)[C@H](C(C)C)NC(=O)[C@@H]2CCCN2C(=O)[C@@H](Cc2ccc(O)cc2)NC(=O)[C@H](CC(C)C)NC(=O)[C@H](CCCCN)NC(=O)[C@H](C(C)C)NC(=O)[C@H](CCCCN)NC(=O)[C@H](CC(C)C)NC(=O)[C@@H]2CCCN2C(=O)[C@@H](Cc2ccc(O)cc2)NC(=O)[C@H](C(C)C)NC1=O
retention time (RP-HPLC C8; 70 °C, water/acetonitrile TFA gradient): 28.7 min

Cc1c(C)c(C)[c-](C)c1C.Cc1ccnc(-c2[c-]cccc2)c1.[Cl-].[Ir+3]
retention time (RP-HPLC; C18 column, water/acetonitrile; with: 50 mM NaCl; longer = more hydrophobic): 20.9 min

CC(C)C[C@@H]1NC(=O)[C@H](CCCCN)NC(=O)[C@H](C(C)C)NC(=O)[C@@H]2CCCN2C(=O)[C@@H](Cc2ccc(O)cc2)NC(=O)[C@H](CC(C)C)NC(=O)[C@H](CCCCN)NC(=O)[C@H](C(C)C)NC(=O)[C@H](CCCCN)NC(=O)[C@H](CC(C)C)NC(=O)[C@@H]2CCCN2C(=O)[C@@H](Cc2ccc(O)cc2)NC(=O)[C@H](CCCCN)NC1=O
retention time (RP-HPLC C8; 70 °C, water/acetonitrile TFA gradient): 25.8 min

N=C(N)NCCC[C@@H](N)C(=O)N[C@@H](Cc1c[nH]c2ccccc12)C(=O)N[C@@H](CCC(N)=O)C(=O)N[C@@H](Cc1c[nH]c2ccccc12)C(=O)N[C@@H](CCCNC(=N)N)C(=O)N[C@@H](Cc1c[nH]c2ccccc12)C(=O)N[C@@H](CCC(N)=O)C(=O)N[C@@H](Cc1c[nH]c2ccccc12)C(=O)N[C@@H](CCCNC(=N)N)C(N)=O
retention time (RP-HPLC, C18 column; water/acetonitrile gradient with TFA): 6.4 min

CCCCCCCCCCCCCCCC(=O)N[C@@H](CCCCN)C(=O)N[C@@H](CCCCN)C(=O)N[C@@H](CCCCN)C(=O)N[C@@H](CCCCN)C(=O)N[C@@H](CCCCN)C(N)=O
retention time (RP-HPLC C18): 14.3 min

CC(C)C[C@@H]1NC(=O)[C@H](CCCCN)NC(=O)[C@@H]2CCCN2C(=O)[C@@H](Cc2ccc(O)cc2)NC(=O)[C@H](CCCCN)NC(=O)[C@H](C(C)C)NC(=O)[C@H](CC(C)C)NC(=O)[C@H](CCCCN)NC(=O)[C@H](C(C)C)NC(=O)[C@@H]2CCCN2C(=O)[C@@H](Cc2ccc(O)cc2)NC(=O)[C@H](CC(C)C)NC(=O)[C@H](CCCCN)NC(=O)[C@H](C(C)C)NC(=O)[C@H](CCCCN)NC1=O
retention time (RP-HPLC C8; 70 °C, water/acetonitrile TFA gradient): 22.7 min

CC[C@@H](C)[C@@H](NC(=O)[C@@H](C)NC(=O)[C@@H](CCCCN)NC(=O)[C@@H](CC(C)C)NC(=O)[C@@H](C)NC(=O)[C@H](NC(=O)[C@@H](Cc1c[nH]cn1)NC(=O)[C@@H](CC(C)C)NC(=O)[C@H](NC(=O)[C@H](NC(=O)[C@@H](CCCCN)NC(=O)[C@H](NC(=O)[C@@H](C)NC(=O)[C@@H](CO)NC(=O)[C@@H](CCCCN)NC(=O)[C@@H](Cc1ccccc1)NC(=O)[C@H](NC(=O)[C@@H](CCCCN)NC(=O)[C@@H](CC(C)C)NC(=O)[C@@H](Cc1ccccc1)NC(=O)[C@@H](CO)NC(=O)[C@@H](CCCCN)NC(=O)[C@@H](Cc1c[nH]c2ccccc12)NC(=O)[C@@H](CCCCN)NC(C)=O)[C@H](C)O)C(C)C)[C@H](C)O)C(C)C)[C@H](C)O)C(=O)N[C@H](CO)C(=O)N[C@H](CO)C(N)=O
retention time (RP-HPLC C8; pH 2, hydrophobicity measure): 102 min

C[C@H](NC(=O)[C@H](CCC(N)=O)NC(=O)[C@H](Cc1c[nH]c2ccccc12)NC(=O)[C@@H](N)CCCNC(=N)N)C(=O)N[C@@H](CCCNC(=N)N)C(=O)N[C@@H](Cc1c[nH]c2ccccc12)C(=O)N[C@@H](CCC(N)=O)C(=O)N[C@@H](Cc1c[nH]c2ccccc12)C(=O)N[C@@H](CCCNC(=N)N)C(N)=O
retention time (RP-HPLC C18; hydrophobicity measure): 5.6 min

CC(C)C[C@@H]1NC(=O)[C@H](CCCCN)NC(=O)[C@H](C(C)C)NC(=O)[C@@H]2CCCN2C(=O)[C@@H](Cc2ccc(O)cc2)NC(=O)[C@H](CC(C)C)NC(=O)[C@H](CCCCN)NC(=O)[C@H](C(C)C)NC(=O)[C@H](CCCCN)NC(=O)[C@@H]2CCCN2C(=O)[C@@H](Cc2ccc(O)cc2)NC(=O)[C@H](CCCCN)NC1=O
retention time (RP-HPLC C8; 70 °C, water/acetonitrile TFA gradient): 22.9 min

CC(C)C[C@H](NC(=O)[C@@H]1CSCC(=O)N[C@H]2CCCCNC(=O)CSC[C@H](NC(=O)[C@H](CCCCN)NC2=O)C(=O)N[C@@H](CCCCN)C(=O)N[C@@H](CC(C)C)C(=O)N1)C(N)=O
retention time (analytical RP-HPLC; C18 column; 10.00 min gradient, 0.05% TFA): 2.44 min

CCCCCCCCCCCCCCCCCC(=O)N[C@@H](CCCN)C(=O)N[C@@H](CCCN)C(=O)N[C@@H](CCCN)C(=O)N[C@@H](CCCN)C(=O)N[C@@H](CCCN)C(N)=O
retention time (RP-HPLC C18): 15.6 min

CC(=O)N[C@@H](Cc1c[nH]c2ccccc12)C(=O)N[C@@H](CCCCN)C(=O)N[C@@H](Cc1ccccc1)C(=O)N[C@@H](CCC(=O)O)C(=O)N[C@@H](Cc1ccccc1)C(=O)N[C@@H](CCCCN)C(=O)N[C@@H](Cc1ccccc1)C(=O)N[C@@H](CCC(=O)O)C(N)=O
retention time (reverse-phase HPLC C18): 12.7 min

CCCCCCCCCCCCCCCC(=O)N[C@H](C(=O)N[C@@H](CCCCN)C(=O)N[C@H](C(=O)N[C@@H](CCCCN)C(=O)N[C@H](C(=O)N[C@@H](CCCCN)C(=O)N[C@H](C(=O)N[C@@H](CCCCN)C(N)=O)C(C)C)C(C)C)C(C)C)C(C)C
retention time (RP-HPLC C18): 16.8 min

CC(C)C[C@@H]1NC(=O)[C@H](CCCCN)NC(=O)[C@H](C(C)C)NC(=O)[C@@H]2CCCN2C(=O)[C@@H](Cc2ccc(O)cc2)NC(=O)[C@H](CC(C)C)NC(=O)[C@H](CCCCN)NC(=O)[C@H](C(C)C)NC(=O)[C@H](CCCCN)NC(=O)[C@H](CC(C)C)NC(=O)[C@H](CCCCN)NC(=O)[C@@H]2CCCN2C(=O)[C@@H](Cc2ccc(O)cc2)NC(=O)[C@H](CCCCN)NC(=O)[C@H](CCCCN)NC1=O
retention time (RP-HPLC C8; 70 °C, water/acetonitrile TFA gradient): 21.6 min

CC[C@@H](C)[C@@H](NC(=O)[C@@H](C)NC(=O)[C@@H](CCCCN)NC(=O)[C@@H](CC(C)C)NC(=O)[C@@H](C)NC(=O)[C@H](NC(=O)[C@@H](CCCCN)NC(=O)[C@@H](CC(C)C)NC(=O)[C@H](NC(=O)[C@@H](CCCCN)NC(=O)[C@@H](CCCCN)NC(=O)[C@@H](CCCCN)NC(=O)[C@@H](C)NC(=O)[C@@H](CCCCN)NC(=O)[C@@H](CO)NC(=O)[C@@H](Cc1ccccc1)NC(=O)[C@H](NC(=O)[C@@H](CCCCN)NC(=O)[C@@H](CC(C)C)NC(=O)[C@@H](Cc1ccccc1)NC(=O)[C@@H](CO)NC(=O)[C@@H](CCCCN)NC(=O)[C@@H](Cc1c[nH]c2ccccc12)NC(=O)[C@@H](CCCCN)NC(C)=O)[C@H](C)O)C(C)C)[C@H](C)O)C(=O)N[C@H](CO)C(=O)N[C@H](CCCCN)C(N)=O
retention time (RP-HPLC C8; pH 2, hydrophobicity measure): 85.4 min

C[C@H](N)C(=O)N[C@@H](Cc1c[nH]c2ccccc12)C(=O)N[C@@H](CCC(N)=O)C(=O)N[C@@H](Cc1c[nH]c2ccccc12)C(=O)N[C@@H](CCCNC(=N)N)C(=O)N[C@@H](Cc1c[nH]c2ccccc12)C(=O)N[C@@H](CCC(N)=O)C(=O)N[C@@H](Cc1c[nH]c2ccccc12)C(=O)N[C@@H](CCCNC(=N)N)C(N)=O
retention time (RP-HPLC C18; hydrophobicity measure): 6.6 min

Repeated from above:
CC(C)C[C@H](NC(=O)[C@@H]1CSCC(=O)N[C@H]2CCCCNC(=O)CSC[C@H](NC(=O)[C@H](CCCCN)NC2=O)C(=O)N[C@@H](CCCCN)C(=O)N[C@@H](CC(C)C)C(=O)N1)C(N)=O
retention time (analytical RP-HPLC; C18 column; 10.00 min gradient, 0.05% TFA): 2.44 min
